Measured values collected from several papers.
Every numbered part comes from another study and shows a few of its results, in no order. Changes are numbered by the printed parent chain.

Sample 1
Target: Fragile X messenger ribonucleoprotein 1, C-terminal low-complexity region (Fmr1, Mus musculus, UniProt P35922)
Technique: RNA Bind-n-Seq
Form: RNA
Medium: in vitro
Concentration: 200 nM
Setting: whole 134-nt RNA, ends assumed
Together with: 150 mM LiCl
Reference: input library
Reading: higher = stronger binding
Library: 7-deaza-guanosine replaces G
All sequences stand within: GGGAGUUCUACAGUCCGACGAUC … UGGAAUUCUCGGGUGUCAAGG
| Oligonucleotide | log2 enrichment |
| --- | --- |
| UGGCCCUGGUGGCAUGCGGGGAGGAAAAGGUGGCCUCAUGGAUCGUGGUGGUCCCGGUGGAAUGUUCAGAGGUGGCCGUGGUGGAGACAG | -0.12 |
| UCAAGUCCUGUGCUACACAUCGUAUGUACCGAAUCGGGGCCGGCCGGGCCGGGGAAAGUAUUAUGUUACGCCGUUCGGAUCUGCACUUCC | 0.418 |
| UAACUUUAGAGGAGGAUCUGAUGGAUAUGGCAGUGGACGUGGAUUUGCGGAUGGCUAUAAUGGGUAUGGAGGAGGACCUGGAGGUGGCAA | 0.35 |
| AAGUCCUGUGCUACACAUCGUAUGUACCGAAUCGGGAAAGGGAAAAAGGGUUUGGGAAAGUAUUAUGUUACGCCGUUCGGAUCUGCACUU | -2.55 |
| AGUCCUGUGCUACACAUCGUAUGUACCGAAUCGGGUUUUGGGGUUUUGGGGUUUUGGGAAAGUAUUAUGUUACGCCGUUCGGAUCUGCAC | -0.92 |
| CACAGACAACACGCACCCACACAGACACAGAGGGAAGGGGUUGGGAUGGGGACAGGGUGCACAGCAGGGCGGGGUAGGACCCCAGCCUCU | -0.0101 |
| UGGAAGGAACGAGCCAGGAAGAGGGACUGGAACCAUCUCAGAAGCCAUGCCCCUCAGGCUGGAACUUGCCCUGUCUCCUCGCAGAUGAGG | -1.12 |
| AGUCCUGUGCUACACAUCGUAUGUACCGAAUCGGGAAAAAAAGGGAAAGGGAAAGGGAAAGUAUUAUGUUACGCCGUUCGGAUCUGCACU | -0.975 |

Sample 2
Target: RING finger protein unkempt homolog, zinc fingers 1-6, GST-SBP tag (UNK, Homo sapiens, UniProt Q9C0B0, residues 30-357)
Technique: RNA Bind-n-Seq
Form: RNA
Medium: in vitro
Concentration: not given
Setting: RNA with constant flanks, human and mouse sites, ends assumed
Reference: input RNA pool
Reading: higher = stronger binding
All sequences stand within: GGGAGUUCUACAGUCCGACGAUC … CAACAGAGGAUUGAGCAUCA
Residues (chain): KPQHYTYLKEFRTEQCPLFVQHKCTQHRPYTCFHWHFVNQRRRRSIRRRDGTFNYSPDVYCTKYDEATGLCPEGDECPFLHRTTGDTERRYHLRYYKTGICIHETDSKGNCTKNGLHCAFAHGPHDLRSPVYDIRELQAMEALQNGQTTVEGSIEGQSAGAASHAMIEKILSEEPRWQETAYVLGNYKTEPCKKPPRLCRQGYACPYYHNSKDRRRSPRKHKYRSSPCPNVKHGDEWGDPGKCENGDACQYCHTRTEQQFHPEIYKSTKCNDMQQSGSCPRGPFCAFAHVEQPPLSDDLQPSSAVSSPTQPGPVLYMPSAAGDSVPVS
| Oligonucleotide | bound/input enrichment [ratio] |
| --- | --- |
| UUUGAAAAAUCCAAACUUACUUUCAGUUGUCUUGGAGGAAGCGAUAAUUUUAAGCAUUUAAAUGAAAUUGAUCUUUUUCAUUGUAUCGAUCCAAAUGAUUCCAAGCAUAAAAGAACAGAC | 0.281 |
| UGGCCUGUGGCUGUGUGUUCAAACACCCCUCCCACAGGACUCACUUUGUCCCAACAAUUCAGAUUGCCUAGAAAUACCUUUCUCUUACCUGUUUGUUAUUUAUCAAUUUUUCCCAGUAUU | 1.04 |
| UCAAAAAGUGGAGGCUCUUAUGGUACUACAUGGGGUGCCUAUGGUUCUAAUUACUCUGGAGACAAAUGUUCAGGCCCUAAUGGCCAAGCUAAUGGUGACACUGUGAAUGCAACUCUAAUG | 0.175 |
| CUAACCUUCCUUCGAAUUCGCUCCAAGAAAAAUGAAAUUAUGGUGGCACCAGAUAAAGACUAUUUCCUGAUUGUGAUCCAGAAUCCAACUGAAUAAGCCACUGUCUGGGCUUCCUGUGUC | 0.174 |
| GACACAUCCUUUAACCGGAAAGACCAUCUUAGAACUCAUCAGAGAUUUCACACAGGAGAGAGAAUUUACAAAUGUAGUGAAUGUGAUGAAUCCUUUACCCAGAAAAUUAAUCUAAGAAUU | 0.246 |
| AAGAACACACCAGUUAAAUCCUCAGAAGGGUCACAGCAAAGGAGUCCAUCAUAUACCAAUGAUUCAACAGCCACUUUCAUCAUUGAUGGCAUGCAUUGUAAAUCAUGUGUGUCAAAUAUU | 0.122 |
| AAAGUGAUGACUAUGUUUGUCCAACGACAGGUAUUUUCGGAGAGCAAAGAUGAGAUUGCGUUAGUCCUCUAUGGCACAGAUGGCACUGAUAAUGCCCUUGCUGGCAAGGACCAGUAUCAG | 0.117 |
| AGUGGAGAGUCCCUUUCAGCCAACAUCGAGUGGAAGCUGACAUUGUGGACCACCUGUGGUCUCUCCAAGGAUGGCUACGGAGGCUGGCAGGACUUGGUGUGCCUGGGAGGUGCUCAGGCC | 0.0616 |

Sample 3
Target: Interferon regulatory factor 7, full length, phosphomimetic (IRF7, Homo sapiens, UniProt Q92985, residues 1-503, S101K/S471D/S472D/S475D/S476D/S477D/S483D/S484D/S487D)
Technique: protein-binding microarray
Form: double-stranded DNA, one strand shown
Medium: in vitro
Concentration: 250 nM
Setting: 60-bp whole probe
Together with: salmon DNA 0.4 mg/ml
Reference: random background probes
Reading: higher = stronger binding
All sequences stand within: GCCTAGCAC … GTCTTGATTCGCTTGACGCTGCTG
Target sequence (chain): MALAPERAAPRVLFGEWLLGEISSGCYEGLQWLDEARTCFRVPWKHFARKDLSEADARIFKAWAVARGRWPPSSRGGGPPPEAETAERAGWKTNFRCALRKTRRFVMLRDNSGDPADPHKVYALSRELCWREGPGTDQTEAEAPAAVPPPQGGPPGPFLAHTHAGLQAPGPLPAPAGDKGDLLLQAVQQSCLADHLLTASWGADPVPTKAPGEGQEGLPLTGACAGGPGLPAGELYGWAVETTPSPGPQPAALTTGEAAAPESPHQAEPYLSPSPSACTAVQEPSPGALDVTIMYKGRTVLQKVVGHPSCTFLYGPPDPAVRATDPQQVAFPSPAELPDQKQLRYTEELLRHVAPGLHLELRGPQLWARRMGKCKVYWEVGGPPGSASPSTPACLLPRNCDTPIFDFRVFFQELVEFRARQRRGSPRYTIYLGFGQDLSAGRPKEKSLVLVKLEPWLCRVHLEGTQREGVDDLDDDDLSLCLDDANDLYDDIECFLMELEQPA
| Oligonucleotide | log fluorescence [z-score] |
| --- | --- |
| TTAGATTTCAGACTGGTTTAGTGCTAG | 0.0678 |
| ATACTGAGAAAGCACTGGACGTGCTAG | 0.116 |
| TGTCTTTTCACTTTCTTTAAGTGCTAG | 2.46 |
| TTAGGTTTGGGTTCCGGTTAGTGCTAG | 1.9 |
| TTAGGAATGGACACTGGGTTAGTGCTA | -0.423 |
| TTAGATTCCAGTTTAGATTAGTGCTAG | 2.37 |
| CAACCAATCATTTTTGCTTAGTGCTAG | -0.403 |
| CCAAACCTGTGCGCCGTGCCGTGCTAG | -0.203 |
| TTAGGACTTGGGTATCGGTTAGTGCTA | 0.554 |
| TGGGAAATTCCTCTGAATAGGTGCTAG | 0.136 |
| GACGAACTGGGGTTCCGAGACGTGCTA | -0.357 |

Sample 4
Target: CCNE2, cyclin fold, Cln2 fusion (human)
Technique: yeast growth competition, sequencing
Medium: yeast
Setting: strong parent motif
Reference: not given
Reading: higher = stronger binding
Starting sequence: CDKN1A docking peptide (human); SKACRRLFGPVDS; partner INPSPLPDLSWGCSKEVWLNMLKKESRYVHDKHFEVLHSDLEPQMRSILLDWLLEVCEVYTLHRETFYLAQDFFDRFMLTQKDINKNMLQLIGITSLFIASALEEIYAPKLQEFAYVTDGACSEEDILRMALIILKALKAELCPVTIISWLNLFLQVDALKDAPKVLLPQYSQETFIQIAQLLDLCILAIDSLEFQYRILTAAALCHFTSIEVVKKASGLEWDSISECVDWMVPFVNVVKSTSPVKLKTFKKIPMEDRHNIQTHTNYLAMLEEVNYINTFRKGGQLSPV
| Substitution | normalised enrichment score |
| --- | --- |
| G9T | 4.31 |
| G9V | 4.3 |
| R5I | 0.226 |
| R6D | 0.815 |
| D12I | 2.69 |
| R5D | -0.555 |
| R5W | 0.648 |
| D12Q | 2.96 |
| C4N | 0.635 |
| C4I | 1.63 |
| P10M | 2.49 |
| F8W | 2.38 |
| F8V | 0.694 |
| V11C | 4.12 |
| A3N | -0.317 |
| V11A | 3.82 |
| D12V | 2.97 |
| F8E | -0.405 |
| V11I | 3.89 |
| R6S | 0.935 |

Excerpt of the above (sample 2):
| Oligonucleotide | bound/input enrichment [ratio] |
| --- | --- |
| AAGAACACACCAGUUAAAUCCUCAGAAGGGUCACAGCAAAGGAGUCCAUCAUAUACCAAUGAUUCAACAGCCACUUUCAUCAUUGAUGGCAUGCAUUGUAAAUCAUGUGUGUCAAAUAUU | 0.122 |
| UGGCCUGUGGCUGUGUGUUCAAACACCCCUCCCACAGGACUCACUUUGUCCCAACAAUUCAGAUUGCCUAGAAAUACCUUUCUCUUACCUGUUUGUUAUUUAUCAAUUUUUCCCAGUAUU | 1.04 |
| UCAAAAAGUGGAGGCUCUUAUGGUACUACAUGGGGUGCCUAUGGUUCUAAUUACUCUGGAGACAAAUGUUCAGGCCCUAAUGGCCAAGCUAAUGGUGACACUGUGAAUGCAACUCUAAUG | 0.175 |
| AGUGGAGAGUCCCUUUCAGCCAACAUCGAGUGGAAGCUGACAUUGUGGACCACCUGUGGUCUCUCCAAGGAUGGCUACGGAGGCUGGCAGGACUUGGUGUGCCUGGGAGGUGCUCAGGCC | 0.0616 |
| AAAGUGAUGACUAUGUUUGUCCAACGACAGGUAUUUUCGGAGAGCAAAGAUGAGAUUGCGUUAGUCCUCUAUGGCACAGAUGGCACUGAUAAUGCCCUUGCUGGCAAGGACCAGUAUCAG | 0.117 |
| UUUGAAAAAUCCAAACUUACUUUCAGUUGUCUUGGAGGAAGCGAUAAUUUUAAGCAUUUAAAUGAAAUUGAUCUUUUUCAUUGUAUCGAUCCAAAUGAUUCCAAGCAUAAAAGAACAGAC | 0.281 |
